Assay results of several laboratories.
Each numbered part is a random draw from the data of one study; scales do not carry over between parts. Changes are numbered by the printed parent chain.

Series 1
Target: CCNB3, cyclin fold, Cln2 fusion (human)
Method: yeast growth competition, sequencing
Matrix: yeast
Notes: weak parent motif
Baseline: not given
Direction: higher = stronger binding
Parent: WEE1 docking peptide (human); HKTFRKLRLFDTP; partner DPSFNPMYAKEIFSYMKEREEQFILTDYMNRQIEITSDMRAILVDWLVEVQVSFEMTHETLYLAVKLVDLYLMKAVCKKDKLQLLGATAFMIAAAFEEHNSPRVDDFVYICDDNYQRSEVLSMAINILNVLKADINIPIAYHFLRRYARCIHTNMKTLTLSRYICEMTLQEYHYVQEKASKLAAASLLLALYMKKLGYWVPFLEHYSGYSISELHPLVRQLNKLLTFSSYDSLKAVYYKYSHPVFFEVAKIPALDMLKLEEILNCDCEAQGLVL
| Change | normalised enrichment score |
| --- | --- |
| K2S | 0.0441 |
| K6A | 0.382 |
| T12P | -0.297 |
| F10S | -0.0491 |
| K2G | 0.195 |
| F4P | -0.0211 |
| K6W | 0.495 |
| R8Q | 0.568 |
| H1S | 0.465 |
| F10Y | -0.398 |
| T3L | -0.00806 |
| T3Q | -0.105 |
| L9G | 0.483 |
| L9W | 0.197 |
| D11Y | -0.355 |

Series 2
Target: ABI1, truncated, D143A, DHFR fusion (Arabidopsis thaliana)
Method: DHFR PCA, deep sequencing
Matrix: yeast
Notes: methotrexate growth selection, single substitutions
Added: (+)-ABA 17 µM
Baseline: wild-type fitted maximum
Direction: higher = stronger binding
Parent: PYL1, truncated, DHFR fusion (Arabidopsis thaliana); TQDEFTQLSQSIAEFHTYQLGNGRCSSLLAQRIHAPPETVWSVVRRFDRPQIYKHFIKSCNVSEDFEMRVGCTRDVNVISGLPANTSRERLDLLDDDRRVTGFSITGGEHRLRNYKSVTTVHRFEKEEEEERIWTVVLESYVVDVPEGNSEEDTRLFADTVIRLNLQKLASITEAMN
| Change | relative binding score [%] |
| --- | --- |
| H122G | 6.49 |
| V137E | 3.04 |
| V100S | 26.3 |
| I52A | 88.2 |
| H16K | -17.9 |
| E14T | 71.3 |
| V62P | 16.8 |
| Y18C | 52.6 |
| S87W | 17.3 |
| W134I | 95.5 |
| E147F | 78.3 |

Series 3
Target: Fragile X messenger ribonucleoprotein 1, C-terminal low-complexity region (Fmr1, Mus musculus, UniProt P35922)
Method: RNA Bind-n-Seq
Form: RNA
Matrix: in vitro
Concentration: 200 nM
Notes: whole 134-nt RNA, ends assumed
Added: 150 mM LiCl
Baseline: input library
Direction: higher = stronger binding
Each molecule: 7-deaza-guanosine replaces G
Constant ends, left off below: GGGAGUUCUACAGUCCGACGAUC … UGGAAUUCUCGGGUGUCAAGG
| Strand | log2 enrichment |
| --- | --- |
| UCAAGUCCUGUGCUACACAUCGUAUGUACCGAAUCGGGAAAGGGAAAGGGAAAGGAAAGUAUUAUGUUACGCCGUUCGGAUCUGCACUUC | -1.33 |
| GCAGGAAGUAAAAACAUAUGGAAAUGCUUCGGAUAGUGGCAGGGGUGGGGGUUGCUAAGGAAAGGGUGGGAUGGGAGUGGGUAAAGAGUU | 1.25 |
| GUCCUGUGCUACACAUCGUAUGUACCGAAUCGGGUGGGUUUUUUUGGGAAAAAAAGGGAAAGUAUUAUGUUACGCCGUUCGGAUCUGCAC | -0.969 |
| CCUCAAGUCCUGUGCUACACAUCGUAUGUACCGAAUCGGGGAGGGAGGGGAGGAAAGUAUUAUGUUACGCCGUUCGGAUCUGCACUUCCA | -1.18 |
| GGUAAACGCCCUGCAGAAGAUAUGGAAGAGGAACAAGCAUUUAAAAGAUCUAGAAACACUGAUGAGAUGGUUGAAUUACGCAUUCUGCUU | 0.0291 |
| GCAGGACGUAAAAACAAAUGGAAAUGCUUCGGAUAGUGGCAGGGGUGGGGGUUGCUAAGGAAAGGGUGGGAUGGGAGUGGGUAAAGAGUU | 1.84 |
| UGUGCGGGAGACAGGCGCCAACGGCACCUCUUUCAGUGUCCGCAAGACAGCCUACUGCGACAUCCACACGCCUCCAGGUUCAGCACGCCG | 0.331 |
| UUUUCAAAAUAAGGAGCUUCCCAGACCUGUGUUAGAAGGGCAGCAGUCAGAGAGGACCCCAAAUAAUCGCCCUGAUGCCCCUAAGGAGAA | -0.328 |
| CUCAAGUCCUGUGCUACACAUCGUAUGUACCGAAUCGGUGGAAAAAAAGGUGGAAAGUAUUAUGUUACGCCGUUCGGAUCUGCACUUCCA | 0.39 |
| UGGCCCUGGUGGCAUGCGGGGAGGAAGAGGUGGCCUCAUGGAUCGUGGUGGUCCCGGUGGAAUGUUCAGAGGUGGCCGUGGUGGAGACAA | 0.0105 |
| CAAGUCCUGUGCUACACAUCGUAUGUACCGAAUCGGGUUUGGGAGGGUUUUUGGGAAAGUAUUAUGUUACGCCGUUCGGAUCUGCACUUC | -0.408 |

Series 4
Target: RNA binding protein fox-1 homolog 2, RRM domain, GST-SBP tag (RBFOX2, Homo sapiens, UniProt O43251-10, residues 100-194)
Method: RNA Bind-n-Seq
Form: RNA
Matrix: in vitro
Concentration: 365 nM
Notes: natural RNA segment, single round, ends assumed
Baseline: no-protein control
Direction: higher = stronger binding
Constant ends, left off below: GGGAGUUCUACAGUCCGACGAUC … UGGAAUUCUCGGGUGCCAA
Target sequence (chain): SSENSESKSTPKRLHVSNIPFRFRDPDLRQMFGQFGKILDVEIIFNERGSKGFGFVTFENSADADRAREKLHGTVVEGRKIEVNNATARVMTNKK
| Strand | RBNS enrichment (R) |
| --- | --- |
| CAUCCCCAAGAUGAGAGGCGAGCAUCCUGCCGAGUGAGCCUGCAGCAACAGCUCCUGAGGAAGGUGCCGGGAGGGGUGUCGCCUCUUCACGAGUGUUCUCCAGAGAAUCA | 0.366 |
| GCAUUUUCAAAGGUCGGAGAUCUUUCUUCUGCCUGAGUUGGUCAUGUAGCAAUUUUUUCCUAAACACAAAAUGGCCUUUUGCUUGUCUGGUAAUGAGAUUGUAAAUCCAU | 1.19 |
| AGCCUUACCUUUGAUGUCUGAAAUGAAACCCCCUUCUCCAAAGGCAAAAUUCGGAGACUUUGAUCUUUGCUACUGGAGUCCUUUAACAACAUCUAUAACGAUAAAAAAUU | 0.382 |
| GCCUGGACUUGGCCCCUGCCACCUCCUGCCUCAGGUGUCCGCUAUCCACCAAAAGGGCUCCCUGAGGGUCUGGGCAAGGGACCUGCUUCUAUUAGCCCUUCUCCAUGGCC | 0.408 |
| UGAGAGUAAUAUCUAAUUAUCUCAUUUUUUGUAGGUCUGUGAUAAAGAACUUAGUCAUCCCUUCCACCUCCUACUGUGAAGAACAGACCCUGGGUCCCACACUGAAAUCC | 0.344 |
| UUGGAAACCACCCAACAAAUAUUAGUAGCUGGAUAGCUACCUAUUUGUUGUUGAAUCCGGGUAUCCAGGCUGAGAAGGGAAGAAAAAUAGCCACUAACUCUGCAACAAUC | 0.31 |
| UGUAGCAGAAUGGUAUUUUCCUCAAGUAGCUCAUAAUACUGCCAAAUCUCAAAAGUUAAGCUGAAUUUCACACCAGAUCCUACCCCUUUCCCUGAGCCACAUGUUUCACA | 0.722 |
| AUCUGAGACCCACCCAUAUCCUAGCUUUUAACUGUCUUCGCUCCACCCUCAAAGAUGCUACUGGGCUUCCUGUGCAUCGCAUUGCUAAAGAGAACUGAUUUCCUAGCAUU | 1.88 |
| UUCCUCAUUAACUGGGAGUCCCACUUACCUACUGUCAGCUGAUCACAGCAGCAAUGGCUAAUUCAGUCCGAGUCAACAACAGCCUCCUACUUCACAGGUUCUCUUCUCCC | 0.497 |
| UAUAAAUCUGUCUGUUUAGAAUCUGUGCUGUGUAAGGGCAUUCGUACUCAUGCUGUUACUGUACUUAUGCACCAUUCAGACUUGUUAGAGUAGAUGUGGGUUUAUGACUG | 0.385 |
| AUUUCAUAUACUUCCGUCUCGAUGCUGUUAACAACUUCUGAUAACAUGGAAAAUUCAAGGAUUGUUUAAAGGUCUGAUGAUCACACACAAAAUGUAAUUCCGGUUAUUUA | 0.383 |
| AGGUUCAAUCUUUCAGUGGCAGGCCAGCUAAACUUUCUAUAGUUUAAUGAUUAGCUGUGGUUAUGAUCUUGAGCCCUAACAUGCCACAUUACUCAAGAUUUACACAGGCA | 0.402 |

Series 5
Target: Hepatocyte nuclear factor 3-alpha (Foxa1, Mus musculus, UniProt P35582, residues 1-468, full length assumed)
Method: EMSA with sequencing
Form: double-stranded DNA, one strand shown
Matrix: in vitro
Concentration: 10 and 20 nM
Notes: whole designed probe, mean of two concentrations, ends assumed
Baseline: negative control set to 0
Direction: higher = stronger binding
Constant ends, left off below: GTGAGCGGTGCCCATTGATGGGGAAC … TTTCACTGGGATCGTGGGGAC
Residues (chain): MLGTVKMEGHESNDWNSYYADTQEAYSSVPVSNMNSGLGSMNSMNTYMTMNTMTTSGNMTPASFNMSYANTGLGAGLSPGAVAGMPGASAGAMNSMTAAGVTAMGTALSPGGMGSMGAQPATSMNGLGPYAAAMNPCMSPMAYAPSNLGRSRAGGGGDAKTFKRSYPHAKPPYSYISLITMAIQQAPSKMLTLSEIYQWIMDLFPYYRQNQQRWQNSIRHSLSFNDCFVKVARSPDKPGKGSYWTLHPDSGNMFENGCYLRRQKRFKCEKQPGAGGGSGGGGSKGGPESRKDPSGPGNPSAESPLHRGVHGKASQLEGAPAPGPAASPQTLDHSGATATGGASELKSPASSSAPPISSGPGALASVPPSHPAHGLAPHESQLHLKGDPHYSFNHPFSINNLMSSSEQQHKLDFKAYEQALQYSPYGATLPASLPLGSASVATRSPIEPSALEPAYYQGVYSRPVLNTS
| Strand | normalised bound fraction |
| --- | --- |
| ATCTTCCCCCTCTTCCTTGCCCCACCAGCTCACCTTCCCGGGTTGTTTACTTTGAGCAAAGTAAACAAAGCCGGCATTCGTTAACCCTCTTCTGGCGCAAACTGCTGTTTACTTTGGATGAATCATGGTCCTTTGGCGACGCCAGGCTCCGGGAGAGCAAAGCACCGTGTCAGGGCCATGATCCGGGGTGGCC | 0.532 ratio |
| ATCTTCCCCCTCTTCCTTGCCCCACCAGCTCACCTACGGGGGTTATTTGCAGATAGGAAAATAAATAAAGCCGGCATTCGTTAACCCTCTTCTGGCGCAAACTGCTGTTTGCTCTGCATCTAACATGGTCCTTACGCGAGGCGTGGCTCCGGGAGAGCAAAGCACCGTGTCAGGCGCATGATCCGGGCTCGCC | 0.353 ratio |
| TAAACATGCTATGAACCAGTGCTAAGTTATACACCAGGCTGGCTTCAAAAATGATTATCAAACTGTGTAGGGATAACTGAAACCAGTAACAGAGTAATCTCTGTGTTAGGATAATAGGGTGCTGACAGGGCGAATGCCTTCCAGCTGAATCATTTTTCCATTCCTGGAATGTTTTGAAATGGAGAATTAAGCA | -0.0332 ratio |
| ATCTTCCCCCTCTTCCTTGCCCCACCAGCTCACCTTCCCTTGTGGTTAGCAGATAGGAAAATAAATAAAGCCGGCATTCGTTAACCCTCTTCTGGCGCAAACTGCTGTTTGCTCTGGATGAATCATGGTCCTTTGGCGACGCCAGGCTCCGGGAGAGCAAAGCACCGTGTCAGGGCCATGATCCGGGGTGGCC | 0.322 ratio |
| TTCAGTATCCCCATATTACTTCTGAAATTTTAAGAGATAAAACATAATTTGAATATCCAGCCATTGAAAGCACAGCTCTAAAGCTATCTCCTTGTTTACTTTTGATTTATCTCCCTGGAAAAATTCCTGTTTTTTCTGTCTGTCTCAGTGTTGCATTTTGGCTATACTTAATGTACAGCATTTTGCACGTTAG | 0.414 ratio |
| TCAAAAAAAGAAAAAGAAAAGCGACGACATTCAGTCAATCAGCCAGATATTTTTGGTGATGCTGCAACTCTTAATGGTATCCTGTCTGGATTCTGTTTATTTAGTTCCTAAGTTGGTAAATACAGTGCCTGTTAATCATTAACCTTTGCCTTGTCATTGACAAAGAGTTCACTTGTCAAGCTGTGAGTGGAAC | 0.429 ratio |
| TGAAATTTAGGAAAAGTTAATATGAATGAGAGAAAAATAACCAAAAAGAAATAGCAATTATTCCTTACTAATGTTATTTTTCTGCCTGCAAAGTAAACATGGTAAAAGAAATTTTTCACTTTAAGTTATGAAAGTTGACACTATTATCTATAATTTTTACATGTGCCTCTATTATATGTCCTCTAGTCTTTCA | 0.401 ratio |
| ACTAAAGACGCTCTGCAATATTCATACCAAGAAGAATCCTTGGAAGAAAAACTAAGGAAACAATTCTAGCTTTCAAATCTAGAGTTGCTGCTAAGTAATCTTAAAGATTTACTCAAGAAGATCCCTGAAATAATTCCTAAAGAAAATGAAAGGTCTTTAGAAACCAGGAAAATAAGTGTTAACTTGAAGTCTG | -0.0279 ratio |

Some of these lines once more (series 2):
| Change | relative binding score [%] |
| --- | --- |
| V137E | 3.04 |
| V100S | 26.3 |
| I52A | 88.2 |
| H16K | -17.9 |
| E14T | 71.3 |
| V62P | 16.8 |
| Y18C | 52.6 |
| S87W | 17.3 |
